# Published values pooled from the literature.
# Lines come from different studies, so protocols differ. Numbers after ± are the reported error.
# CDKL3: Cyclin-dependent kinase-like 3 (CDKL3, Homo sapiens, UniProt Q8IVW4)
Structure (SMILES),target,test,test system,setting,how to read,endpoint,result
C[C@]12CC[C@H]3[C@@H](CCC4=CC(=O)CC[C@@]43C)[C@@H]1CC[C@@H]2C(=O)CO,"Mineralocorticoid receptor (NR3C2, Homo sapiens, UniProt P08235)","reporter gene, agonist",,,baseline: baseline,maximal response,23 fold
C[N+](C)(C)C,"Chrnd/Chrna1/Chrne (Mus musculus, UniProt P02716+P04756+P20782, G173S/S470W)","ligand binding, agonist, single-channel kinetics",,chain S,baseline: wild type over mutant,affinity ratio,1.7
CN1CCN(c2cc(-c3ccncc3)c(-c3ccc4ccccc4c3)nn2)CC1,"Cholecystokinin receptor type A (CCKAR, Homo sapiens, UniProt P32238)","agonist, FLIPR",,12.5 µM,,activation,-0.6%
Clc1cc2c(cc1Cl)Oc1cc(Cl)c(Cl)cc1O2,"Aryl hydrocarbon receptor (Ahr, Rattus norvegicus, UniProt P41738)","reporter gene, agonist",,384-well format,,Hill slope,47.3
CC(CCn1ccc(-c2ccc(-c3cn(Cc4ccncn4)nn3)cc2)cc1=O)(C(=O)NO)S(C)(=O)=O (stereo not shown),"UDP-3-O-acyl-N-acetylglucosamine deacetylase (Pseudomonas aeruginosa, UniProt P47205)",fluorescence,,37 °C,,residence time,103 ± 20.2 min
CC1=NCCc2c1[nH]c1cc(O)ccc21,"DNA cross-link repair 1A protein (DCLRE1A, Homo sapiens, UniProt Q6PJP8)","exonuclease activity, fluorescence",,"10 µM, 80 min, together with: 8 nM DNA substrate",,remaining activity,13.9%
[2H]c1c([2H])c([C@]2([2H])CCCN2C(=O)C(C)(C)Oc2ccc3cn[nH]c3c2)c([2H])c([2H])c1C([2H])([2H])[2H],CDKL3,KINOMEscan,,1 µM,baseline: DMSO control,remaining binding,90%
NC[C@H](NC(=O)c1ccc(C#Cc2ccccc2)cc1)C(=O)NO,"UDP-3-O-acyl-N-acetylglucosamine deacetylase (Pseudomonas aeruginosa, UniProt P47205, C40S)",ITC,,"concentration not given, 298 K",,-TΔS of binding,-9.14 kcal/mol
COc1cc(Nc2ncc(F)c(Nc3ccc4c(n3)NC(=O)C(C)(C)O4)n2)cc(OC)c1OC,CDKL3,KINOMEscan,,10 µM,,inhibition,0%
CCCCC/C=C\C/C=C\C/C=C\C/C=C\CCCC(=O)NCCO,"Transient receptor potential cation channel subfamily V member 1 (Trpv1, Mus musculus, UniProt Q704Y3, S513A)","ion current, agonist, whole-cell patch clamp",,,,Hill coefficient,2.8 ± 0.61
O=P(O)(O)OC[C@H]1C[C@@](O)(CO)[C@@H](O)[C@H](O)[C@@H]1O,"valA (Streptomyces hygroscopicus, UniProt H2K887)",phosphate release,,100 µM,,apparent Vmax,2.5 ± 0.3 µM/min
CC[C@H](C)[C@H](NC(=O)CNC(=O)[C@@H](N)CCCCN)C(=O)N[C@@H](CC(C)C)C(=O)N[C@@H](CCCCN)C(=O)N[C@@H](CC(N)=O)C(=O)N[C@@H](CCCNC(=N)N)C(=O)N[C@@H](C)C(=O)N[C@@H](CCCNC(=N)N)C(=O)N[C@@H](CCCNC(=N)N)C(=O)N[C@@H](CCC(=O)O)C(=O)N[C@@H](CCCNC(=N)N)C(=O)N1CCC[C@H]1C(=O)NCC(=O)N[C@@H](CCCCN)C(=O)N[C@@H](CCCNC(=N)N)C(=O)N[C@@H](CCCCN)C(=O)N[C@H](C(=O)N[C@H](C(=O)N[C@H](C(=O)N[C@@H](Cc1c[nH]c2ccccc12)C(=O)N1CCC[C@H]1C(=O)N[C@@H](CCC(=O)O)C(=O)N[C@@H](CCC(=O)O)C(=O)NCC(=O)N[C@@H](CCCCN)C(=O)N[C@@H](CC(C)C)C(=O)N[C@@H](CCCNC(=N)N)C(=O)N[C@@H](CCC(=O)O)C(=O)N[C@@H](Cc1ccc(O)cc1)C(=O)N[C@@H](Cc1ccccc1)C(=O)N[C@@H](Cc1ccc(O)cc1)C(=O)N[C@@H](Cc1ccccc1)C(=O)N[C@@H](CCC(=O)O)C(=O)N[C@@H](CC(C)C)C(=O)N[C@@H](CC(=O)O)C(=O)N[C@@H](CCC(=O)O)C(=O)N[C@H](C(=O)N[C@@H](CCC(=O)O)C(=O)N[C@@H](CCCNC(=N)N)C(=O)N[C@H](C(=O)N[C@@H](CC(N)=O)C(=O)N[C@H](C(=O)O)C(C)C)C(C)C)[C@@H](C)O)[C@@H](C)O)C(C)C)[C@@H](C)O,"Serine/threonine-protein phosphatase PP1-alpha catalytic subunit (PPP1CA, Homo sapiens, UniProt P62136)","binding, isothermal titration calorimetry",,"concentration not given, 25 °C, PP1α residues 7-330",,enthalpy change ΔH,-31.8 ± 1.2 kcal/mol
CN(C(=O)n1cnc(-c2ccc[n+]([O-])c2)c1)C1CCCCC1,"Inhibitor of nuclear factor kappa-B kinase subunit alpha (CHUK, Homo sapiens, UniProt O15111)",enzyme activity,,50 µM,,inhibition,1%
N#C[C@@]12C[C@@H]1[C@@H](n1cnc3c(NC4CCCC4)nc(I)nc31)[C@H](O)[C@@H]2O,"5-hydroxytryptamine receptor 2B (Rattus norvegicus, UniProt P30994)","antagonist, Gq dissociation BRET",,concentration not given,baseline: human over rat receptor,affinity reduction,~10 fold
CC1(C)[C@H](C(=O)O[C@H](C#N)c2cccc(Oc3ccccc3)c2)[C@@H]1C=C(Br)Br,"uncharacterized protein (Anopheles coluzzii, UniProt A0A6E8VQK1)","enzyme activity, inhibitor",Sf9 cell homogenate,"454.5 µM, 0.1667 h, together with: α-naphthyl acetate substrate",baseline: no inhibitor,remaining activity,100%
Cc1c(-c2cccnc2)c2ccccc2n1CCCCC(=O)O,"Fatty acid-binding protein, adipocyte (FABP4, Homo sapiens, UniProt P15090)","binding, affinity selection mass spectrometry",,"100 nM, pooled screen",baseline: other proteins,fold change,43
CC12CCC(CC1)C(C)(C)O2,"1,8-cineole 2-endo-monooxygenase (cinA, Citrobacter braakii, UniProt Q8VQF6)","substrate, GC-MS",,"0 to 2 min, wild-type enzyme variant",,product formation rate,248 ± 28 min⁻¹
C/C=C1\C(=O)C[C@H]2[C@@H]3CCC4=CC(=O)CC[C@]4(C)[C@H]3CC[C@]12C,"Nuclear receptor subfamily 1 group I member 3 (Homo sapiens, UniProt Q14994)",,cells,concentration not given,,activity,inactive
OB(O)CSc1nc2ccccc2n1Cc1ccc(C(F)(F)F)cc1C(F)(F)F,"Regulatory protein BlaR1, sensor domain (blaR1, Staphylococcus aureus, UniProt P18357)",,,,,kon,5800 ± 1.2e+06 M⁻¹ s⁻¹
C[C@H]1CN(c2n[nH]c3nc(N[C@H]4CC[C@H](NS(=O)(=O)CCC(F)(F)F)CC4)ncc23)CCO1,"Serine/threonine-protein kinase Chk1 (CHEK1, Homo sapiens, UniProt O14757)","inhibitor, Kinobeads competition profiling",,0.16 µM,baseline: vehicle,relative abundance,1.07
CC[C@H](C)[C@H](NC(=O)[C@H](C)NC(=O)[C@H](CCC(=O)O)NC(=O)[C@H](Cc1c[nH]cn1)NC(=O)[C@H](CC(C)C)NC(=O)[C@@H](NC(=O)[C@H](Cc1ccccc1)NC(=O)[C@H](CO)NC(=O)[C@@H](NC(=O)[C@H](CC(C)C)NC(=O)[C@H](CC(=O)O)NC(=O)[C@H](CC(C)C)NC(=O)[C@@H]1CCCN1)[C@@H](C)O)C(C)C)C(=O)O,"Amine oxidase [flavin-containing] A (MAOA, Homo sapiens, UniProt P21397)","inhibitor, fluorometric",,,baseline: IC50 MAO-B over IC50 MAOA,selectivity ratio,26
CO[P@](=O)(Oc1ccccc1)OC1CCCCC1,"had (Sphingobium sp. TCM1, UniProt A0A077JBW9)",,,,,Km,370 ± 50 µM
Nc1nc2c(ncn2[C@@H]2O[C@@H]3COP(=O)(O)O[C@H]4[C@@H](O)[C@H](n5cnc6c(=O)[nH]c(N)nc65)O[C@@H]4COP(=O)(O)O[C@H]3[C@H]2O)c(=O)[nH]1,"Cell cycle histidine kinase CckA, R374A; cytoplasmic region (Caulobacter vibrioides, UniProt Q9X688, R374A)","binding, ITC",,"12 °C, together with: ADP 5 mM",,-TΔS,-7 kcal/mol
O=C(Nc1cnccc1Cl)N1CCN(Cc2ccc3c(c2)OC(F)(F)O3)CC1,"Alpha-1A adrenergic receptor (Adra1a, Rattus norvegicus, UniProt P43140)",binding,,"10 µM, together with: [3H]prazosin",,inhibition,17%
C[C@@H](O)[C@H](NC(=O)[C@H](Cc1ccccc1)NC(=O)[C@H](Cc1ccccc1)NC(=O)[C@H](CC(=O)O)NC(=O)[C@H](CC(=O)O)NC(=O)[C@H](Cc1c[nH]c2ccccc12)NC(=O)[C@H](CO)NC(=O)[C@@H](N)CCCCN)C(=O)N[C@@H](CCCNC(=N)N)C(=O)O,"Epithelial sodium channel subunit alpha (Homo sapiens, UniProt P37088)","binding, bio-layer interferometry",,,,kon,159 M⁻¹ s⁻¹
CC[C@@H](C)[C@@H](NC(=O)[C@@H](Cc1ccc(O)cc1)NC(=O)[C@H]1CCCN1C(=O)[C@@H](CCCNC(=N)N)NC(=O)[C@H](N)Cc1c[nH]cn1)C(=O)N[C@H](C)C(=O)N[C@H](Cc1c[nH]cn1)C(=O)N[C@H](CCCNC(=N)N)C(=O)N[C@H](CCCCNC(=O)c1cccc(S(=O)(=O)F)c1)C(=O)N[C@H](Cc1ccc(O)cc1)C(=O)N[C@H](CO)C(=O)N[C@H](Cc1ccccc1)C(N)=O,"Transferrin receptor protein 1 (Tfrc, Mus musculus, UniProt Q62351)",flow cytometry,B16,"24 h, unit not given",baseline: 0 h,surface TFRC expression,0.324
O=C(O)CC(=O)O,"matB (Rhodopseudomonas palustris, UniProt Q6ND88, C106A/K488A/Q457C/R286C)","binding, intrinsic fluorescence",,"1 mM, 1 µM matB, 10 mM MgCl2",,fluorescence ratio F+/F-,0.94
Nc1ccncc1,"Voltage-dependent P/Q-type calcium channel subunit alpha-1A (Homo sapiens, UniProt O00555)","ion current, antagonist, automated patch clamp",,,,IC30,> 30 µM
O=C(Nc1cccnn1)N1CCC(=Cc2cccc(Oc3ccc(C(F)(F)F)cn3)c2)CC1,"MAP kinase-activated protein kinase 5 (MAPKAPK5, Homo sapiens, UniProt Q8IW41)","kinase activity, inhibitor",,"50 µM, together with: PRAK peptide substrate",,inhibition,-12%
O=C(c1ccc(Cl)cc1)N1CCN2C(=O)N(OC(=O)N3CCOc4ccccc43)C(=O)C2C1 (stereo not shown),"Probable serine carboxypeptidase CPVL (CPVL, Homo sapiens, UniProt Q9H3G5)","enzyme activity, inhibitor, MS-based ABPP",SW-620 conditioned medium,"10 µM, 1 h, 37 °C","baseline: compound over DMSO, lower = stronger inhibition",median ratio,1.1
CCn1c(-c2nc3cc(C(=O)N4CCC[C@@H](N)C4)cc(OC)c3n2C)cc2cccnc21,"Protein-arginine deiminase type-3 (PADI3, Homo sapiens, UniProt Q9ULW8)",,,,baseline: Ki PADI3 over Ki PAD4,selectivity ratio,58
O=C(Cc1cccs1)N[C@@H]1C(=O)N2C(C(=O)O)=C(/C=C/c3ccc([N+](=O)[O-])cc3[N+](=O)[O-])CS[C@H]12,"Metallo-beta-lactamase type 2 (blaNDM-1, Klebsiella pneumoniae, UniProt C7C422, C208S)","hydrolysis, substrate",,,,Km,16 ± 1 µM
COc1ccc(N2C(=O)N(c3c(C)cccc3Cl)Cc3cnc(Nc4ccc(C5CCN(C)CC5)cc4OC)nc32)nc1,"Phosphorylase b kinase gamma catalytic chain, skeletal muscle/heart isoform (PHKG1, Homo sapiens, UniProt Q16816)","kinase activity, inhibitor",,"0.5 µM, kinase PHK-GAMMA1",,inhibition,8%
C[C@]12CC[C@H]3[C@@H](CCC4=CC(=O)CC[C@@]43C)[C@@H]1CC[C@@H]2C(=O)CO,"Cytochrome P450 11B2, mitochondrial (CYP11B2, Homo sapiens, UniProt P19099, A320V)",,,,,k1,316 ± 134 s⁻¹
O=C1CC(C(=O)O)NC(=O)N1 (stereo not shown),"Dihydroorotate dehydrogenase A (fumarate) (pyrDA, Lactococcus lactis subsp. cremoris, UniProt A2RJT9, C130S/L71F/V133T)",substrate,Lactococcus lactis,"concentration not given, 25 °C",,flavin reduction rate,9.7e-06 ± 3e-07 s⁻¹
Cc1nn(C)cc1-c1nc2c(N3CCN(Cc4ccc(Cl)cc4)CC3)c(Cl)cnc2[nH]1,"Cyclin-dependent kinase 19 (CDK19, Homo sapiens, UniProt Q9BWU1)","binding, KINOMEscan",,1 µM,,remaining binding,100%
COc1cc(N)c(Cl)cc1C(=O)NC1CN2CCC1CC2 (stereo not shown),"G-protein coupled receptor 151 (GPR151, Homo sapiens, UniProt Q8TDV0)","β-arrestin recruitment, TANGO luminescence, measured: GPR151",,concentration not given,baseline: basal luminescence,log2 fold change,0.254

# A few entries again:
Structure (SMILES),target,test,test system,setting,how to read,endpoint,result
C/C=C1\C(=O)C[C@H]2[C@@H]3CCC4=CC(=O)CC[C@]4(C)[C@H]3CC[C@]12C,"Nuclear receptor subfamily 1 group I member 3 (Homo sapiens, UniProt Q14994)",,cells,concentration not given,,activity,inactive
OB(O)CSc1nc2ccccc2n1Cc1ccc(C(F)(F)F)cc1C(F)(F)F,"Regulatory protein BlaR1, sensor domain (blaR1, Staphylococcus aureus, UniProt P18357)",,,,,kon,5800 ± 1.2e+06 M⁻¹ s⁻¹
C[C@H]1CN(c2n[nH]c3nc(N[C@H]4CC[C@H](NS(=O)(=O)CCC(F)(F)F)CC4)ncc23)CCO1,"Serine/threonine-protein kinase Chk1 (CHEK1, Homo sapiens, UniProt O14757)","inhibitor, Kinobeads competition profiling",,0.16 µM,baseline: vehicle,relative abundance,1.07
CC[C@H](C)[C@H](NC(=O)[C@H](C)NC(=O)[C@H](CCC(=O)O)NC(=O)[C@H](Cc1c[nH]cn1)NC(=O)[C@H](CC(C)C)NC(=O)[C@@H](NC(=O)[C@H](Cc1ccccc1)NC(=O)[C@H](CO)NC(=O)[C@@H](NC(=O)[C@H](CC(C)C)NC(=O)[C@H](CC(=O)O)NC(=O)[C@H](CC(C)C)NC(=O)[C@@H]1CCCN1)[C@@H](C)O)C(C)C)C(=O)O,"Amine oxidase [flavin-containing] A (MAOA, Homo sapiens, UniProt P21397)","inhibitor, fluorometric",,,baseline: IC50 MAO-B over IC50 MAOA,selectivity ratio,26
